Results gathered from unrelated publications.
“And” joins repeats or separate records; there may be more than shown. ± marks the error that the study gave.

| SMILES | cell line | assay | test system | conditions | scale | measurement | result |
| --- | --- | --- | --- | --- | --- | --- | --- |
| C=C[C@@H]1C[C@]1(NC(=O)[C@@H]1C[C@@H]2CN1C(=O)[C@H](C(C)(C)C)NC(=O)O[C@@H]1C[C@H]1CCCCCc1nc3ccc(OC)cc3nc1O2)C(=O)NS(=O)(=O)C1CC1 | plated human hepatocytes |  |  | 0.5 µM, 60 min, with: 0.2% HSA |  | unbound fraction in hepatocytes | 0.0173 |
| CCCC(CCC)NC(=O)c1ccc2c(c1)OCO2 | CHO-WBL |  |  | 1.67 mg/mL, 3 h, with rat liver S9 |  | relative mitotic index | 104% |
| Cc1ccc2[nH]ccc2c1 | uninfected HCT-8 | cytotoxicity, Hoechst nuclei count |  |  |  | EC50 | 1200 µM |
| Nc1nc(S)nc(O)c1N=Cc1cn(-c2ccccc2)nc1-c1ccccc1 | CCRF-CEM | cytotoxicity, differential nuclear staining |  | 48 h |  | CC50 | 13.4 ± 0.98 µM |
| O=c1c(O)c(-c2ccc(O)cc2O)oc2cc(O)cc(O)c12 | BEAS-2B | enzyme activity, inducer, fluorogenic substrate imaging |  | 10 µM, 24 h | reference: control | CYP1A1 induction | 1.52 fold |
| CC(ONC(=O)c1cc(C(F)(F)F)cc(C(F)(F)F)c1)C(=O)Nc1ccc(Cl)cc1 (stereo not drawn) | PH5CH8 hepatocytes | high-content cell count |  | 72 h |  | CC50 | > 10 µM |
| CC(=O)Nc1ccc(O)cc1 | THLE-2 transduced with Ad-UGT1A4 | cytotoxicity |  | 48 h |  | IC50 | 2300 ± 250 µM |
| C[n+]1cc(NC(=O)c2ccc3ccc4ccc(C(=O)Nc5cc6ccccc6[n+](C)c5)nc4c3n2)cc2ccccc21 | COLO 205 | cytotoxicity, resazurin |  | 5 days |  | CC50 | 21 ± 2 µM |
| CSc1ccc(OCc2ncc([N+](=O)[O-])n2C)cc1 | LMH chicken hepatoma |  |  |  |  | CC50 | 243 µM |
| O=c1c(-c2ccccc2)coc2cc(O)ccc12 | BEAS-2B | enzyme activity, inducer, fluorogenic substrate imaging |  | 10 µM, 24 h | reference: control | CYP1A1 induction | 0.8 fold |
| CC(C)n1ncc2c(C(=O)NCC3(C)CNC3)cc(C3CC3)nc21 | Vero C1008 | neutral red uptake | DMEM with 2% FBS | 0.33 µM | reference: positive control | viability | 100% |
| CO[C@@H]1[C@H](OC(=O)/C=C/C=C/C=C/C=C/C(=O)O)CC[C@]2(CO2)[C@H]1[C@@]1(C)O[C@@H]1CC=C(C)C | LMH chicken hepatoma |  |  |  |  | CC50 | 335 µM |
| COc1ccc2cc[nH]c2c1 | uninfected HCT-8 | cytotoxicity, Hoechst nuclei count |  |  |  | EC50 | 2300 µM |
| O=C(O)[C@H]1O[C@@H](Oc2cc3oc(-c4ccc(O)cc4)cc(=O)c3c(O)c2O)[C@H](O)[C@@H](O)[C@@H]1O | BEAS-2B | enzyme activity, inducer, fluorogenic substrate imaging |  | 10 µM, 24 h | reference: control | CYP1A1 induction | 1.18 fold |
| Oc1cccc2cc[nH]c12 | uninfected HCT-8 | cytotoxicity, Hoechst nuclei count |  |  |  | EC50 | 2510 µM |
| COc1ccc(C=NNC(=O)CSc2nc3c(C)cccc3c(=O)n2-c2ccccc2)cc1OS(C)(=O)=O | BJ1 | MTT |  | 100 µM |  | cytotoxicity | 75.6 ± 2.33% |
| CC(=O)Nc1cccc(-n2c(=O)n(C3CC3)c(=O)c3c(Nc4ccc(I)cc4F)n(C)c(=O)c(C)c32)c1 | NCI-H2087 (BRAF L597V) |  |  | 6.25 nM, 72 h, unit not given | reference: DMSO | viability | 0.523 |
| COC[C@@H](CC(C)C)NC(=O)c1ccc(C)c(C)c1 | primary human lymphocytes | item: structural aberrations |  | 110 µg/mL, 20 h, without S9 |  | cells with aberrations | 0% |
| Cc1ccc(-n2sc3ccccc3c2=O)cc1 | HIV-1 Ba-L-infected human monocyte-derived macrophages |  |  | 7 d |  | CC50 | > 90 µM |
| Fc1ccc(N/N=C/c2ccc(-c3cccc(/C=N/Nc4ccc(F)cc4)c3)cc2)cc1 | BEAS-2B |  |  | 31 µg/mL |  | cytotoxicity | not toxic |
| COc1cccc2c1C(=O)c1c(O)c3c(c(O)c1C2=O)C[C@@](O)(C(=O)CO)C[C@@H]3O[C@H]1C[C@H](N)[C@H](O)[C@H](C)O1 | THLE-2 transduced with Ad-CYP2D6 | metabolism-induced cytotoxicity |  | 48 h, 3D Matrigel spots |  | IC50 | 4 ± 1 µM |

| SMILES | cell line | assay | test system | conditions | scale | measurement | result |
| --- | --- | --- | --- | --- | --- | --- | --- |
| O=c1c(O)c(-c2ccccc2)oc2ccc(O)cc12 | BEAS-2B | enzyme activity, inducer, fluorogenic substrate imaging |  | 10 µM, 24 h | reference: control | CYP1A1 induction | 1.2 fold |
| Cc1cc(C(=O)NC(C)(C)COc2cccc3c2C(N)=NS(=O)(=O)N3)cc(C)n1 | human peripheral blood lymphocytes | CBPI, preliminary test |  | 600 µg/mL, 24 h | reference: vehicle control | cytotoxicity | 3% |
| COc1ccc(N/N=C/c2ccc(-c3ccc(/C=N/Nc4ccc(OC)cc4)cc3)cc2)cc1 | BEAS-2B |  |  | 15.5 µg/mL |  | cytotoxicity | not toxic |
| CN(C)C/C=C/C(=O)Nc1ccc(C(=O)Nc2cccc(Nc3ncc(Cl)c(-c4c[nH]c5ccccc45)n3)c2)cc1 | PH5CH8 hepatocytes | high-content cell count |  | 72 h |  | CC50 | 0.034 µM |
| Cc1cnc(Nc2ccc(OCCN3CCCC3)cc2)nc1Nc1cccc(S(=O)(=O)NC(C)(C)C)c1 | iCell cardiomyocytes hiPSC-derived | CellTiter-Glo |  | concentration not given, 24 h | reference: vehicle | ATP level | 99.4% |
| CCCC(=O)OCSc1ccccc1C(=O)NCCn1ccc(=O)c2cc(F)ccc21 | PHA-P-stimulated PBMC pooled | cytotoxicity, XTT |  | 7 days |  | TC50 | > 100 µM |
| N#Cc1cccc2cc[nH]c12 | uninfected HCT-8 | cytotoxicity, Hoechst nuclei count |  |  |  | EC50 | 2320 µM |
| CC(=O)CCCCn1c(=O)c2c(ncn2C)n(C)c1=O | PH5CH8 hepatocytes | high-content cell count |  | 72 h, oleate lipid loaded |  | CC50 | > 10 µM |
| Cc1cccc(CNC(=O)c2cn(CCNC(=O)c3ccccc3Sc3c([N+](=O)[O-])ncn3C)c3cc4c(cc3c2=O)OCO4)n1 | PHA-P-stimulated PBMC pooled | cytotoxicity, XTT |  | 7 days |  | TC50 | > 100 µM |
| CCCCCCCC[N+](CCCCCCCC)(CCCCCCCC)CCCCCCCC.[Br-] | hTERT-RPTEC parental |  |  | concentration not given, 96-well plate |  | LDH release | 73.3 mU/mL and 67.8 mU/mL and 75.5 mU/mL |
| O=c1c(O)c(-c2ccccc2)oc2cc(O)cc(O)c12 | BEAS-2B | enzyme activity, inducer, fluorogenic substrate imaging |  | 10 µM, 24 h | reference: control | CYP1A1 induction | 1.2 fold |
| CCCC(=O)OCSc1ccccc1C(=O)NCCn1ccc(=O)c2cc(C)ccc21 | PHA-P-stimulated PBMC pooled | cytotoxicity, XTT |  | 7 days |  | TC50 | > 100 µM |
| C=C(C)[C@H](CC=C(C)C)Cc1c(O)cc(OC)c(C(=O)/C=C/c2ccc(O)cc2O)c1O | COLO 205 | cytotoxicity, MTT |  | 48 h |  | IC50 | 29.4 µM |
| COc1cc(C(=O)NS(=O)(=O)c2ccccc2C)ccc1Cc1cn(C)c2ccc(NC(=O)OC3CCCC3)cc12 | BEAS-2B | resazurin |  | 24 h |  | highest non-cytotoxic concentration | > 128 µM |
| COc1ccc(-c2cc(=O)c3c(O)cc(O)cc3o2)cc1-c1c(O)cc(O)c2c(=O)cc(-c3ccc(O)cc3)oc12 | BEAS-2B | enzyme activity, inducer, fluorogenic substrate imaging |  | 10 µM, 24 h | reference: control | CYP1A1 induction | 1.17 fold |
| C[C@H]1[C@@H](O)O[C@@H]2O[C@@]3(C)CC[C@H]4[C@H](C)CC[C@@H]1[C@@]24OO3 | MV4-11 cells | CellTox Green |  | 24 h |  | lowest cytotoxic concentration | 1 µM |
| COc1cc(-c2oc3cc(O)cc(O)c3c(=O)c2O)ccc1O | BEAS-2B | enzyme activity, inducer, fluorogenic substrate imaging |  | 10 µM, 24 h | reference: control | CYP1A1 induction | 0.96 fold |
| COc1cccc(CN(CCN(CCN(C)C)Cc2ccccc2)Cc2ccccc2)c1 | WI-38 | propidium iodide flow cytometry |  | 10 µM, 21 h |  | apoptotic cells | 0.71% |
| N#Cc1ccc2[nH]ccc2c1 | uninfected HCT-8 | cytotoxicity, Hoechst nuclei count |  |  |  | EC50 | 1550 µM |
| O=C(CCc1ccc(O)cc1)c1c(O)cc(O)cc1O | BEAS-2B | enzyme activity, inducer, fluorogenic substrate imaging |  | 10 µM, 24 h | reference: control | CYP1A1 induction | 0.97 fold |
| CC(C)(c1ccc(O)cc1)c1ccc(O)cc1 | HepG2 spheroids, dissociated | annexin V-FITC/PI flow cytometry |  | 40 µM, 24 h |  | viable cells | ~80% |

A few entries again:
| SMILES | cell line | assay | test system | conditions | scale | measurement | result |
| --- | --- | --- | --- | --- | --- | --- | --- |
| Cc1cccc(CNC(=O)c2cn(CCNC(=O)c3ccccc3Sc3c([N+](=O)[O-])ncn3C)c3cc4c(cc3c2=O)OCO4)n1 | PHA-P-stimulated PBMC pooled | cytotoxicity, XTT |  | 7 days |  | TC50 | > 100 µM |
| CCCCCCCC[N+](CCCCCCCC)(CCCCCCCC)CCCCCCCC.[Br-] | hTERT-RPTEC parental |  |  | concentration not given, 96-well plate |  | LDH release | 73.3 mU/mL and 67.8 mU/mL and 75.5 mU/mL |
| O=c1c(O)c(-c2ccccc2)oc2cc(O)cc(O)c12 | BEAS-2B | enzyme activity, inducer, fluorogenic substrate imaging |  | 10 µM, 24 h | reference: control | CYP1A1 induction | 1.2 fold |
| CCCC(=O)OCSc1ccccc1C(=O)NCCn1ccc(=O)c2cc(C)ccc21 | PHA-P-stimulated PBMC pooled | cytotoxicity, XTT |  | 7 days |  | TC50 | > 100 µM |
| C=C(C)[C@H](CC=C(C)C)Cc1c(O)cc(OC)c(C(=O)/C=C/c2ccc(O)cc2O)c1O | COLO 205 | cytotoxicity, MTT |  | 48 h |  | IC50 | 29.4 µM |
| COc1cc(C(=O)NS(=O)(=O)c2ccccc2C)ccc1Cc1cn(C)c2ccc(NC(=O)OC3CCCC3)cc12 | BEAS-2B | resazurin |  | 24 h |  | highest non-cytotoxic concentration | > 128 µM |
| COc1ccc(-c2cc(=O)c3c(O)cc(O)cc3o2)cc1-c1c(O)cc(O)c2c(=O)cc(-c3ccc(O)cc3)oc12 | BEAS-2B | enzyme activity, inducer, fluorogenic substrate imaging |  | 10 µM, 24 h | reference: control | CYP1A1 induction | 1.17 fold |
